Assay results of several laboratories.
Each numbered part is a random draw from the data of one study; scales do not carry over between parts.
UniProt P35626, sequence (whole entry, looked up): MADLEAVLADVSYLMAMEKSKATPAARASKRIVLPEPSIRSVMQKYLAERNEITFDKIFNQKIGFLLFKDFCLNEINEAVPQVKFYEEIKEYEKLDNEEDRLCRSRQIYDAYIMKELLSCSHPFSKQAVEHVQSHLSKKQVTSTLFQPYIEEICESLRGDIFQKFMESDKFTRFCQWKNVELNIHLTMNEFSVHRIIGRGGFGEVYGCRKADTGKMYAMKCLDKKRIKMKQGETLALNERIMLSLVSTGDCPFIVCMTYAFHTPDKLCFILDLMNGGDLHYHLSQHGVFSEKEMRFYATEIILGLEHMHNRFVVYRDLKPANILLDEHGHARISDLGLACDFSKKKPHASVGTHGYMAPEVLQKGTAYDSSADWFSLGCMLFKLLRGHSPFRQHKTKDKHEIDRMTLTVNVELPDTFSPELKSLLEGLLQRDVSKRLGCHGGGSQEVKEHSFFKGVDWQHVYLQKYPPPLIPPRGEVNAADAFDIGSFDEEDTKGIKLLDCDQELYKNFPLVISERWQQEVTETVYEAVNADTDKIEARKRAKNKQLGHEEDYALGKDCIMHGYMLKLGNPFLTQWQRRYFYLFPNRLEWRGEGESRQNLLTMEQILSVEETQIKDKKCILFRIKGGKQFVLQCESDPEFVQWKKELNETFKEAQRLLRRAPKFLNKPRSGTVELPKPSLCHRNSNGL
UniProt P42336, sequence (whole entry, looked up): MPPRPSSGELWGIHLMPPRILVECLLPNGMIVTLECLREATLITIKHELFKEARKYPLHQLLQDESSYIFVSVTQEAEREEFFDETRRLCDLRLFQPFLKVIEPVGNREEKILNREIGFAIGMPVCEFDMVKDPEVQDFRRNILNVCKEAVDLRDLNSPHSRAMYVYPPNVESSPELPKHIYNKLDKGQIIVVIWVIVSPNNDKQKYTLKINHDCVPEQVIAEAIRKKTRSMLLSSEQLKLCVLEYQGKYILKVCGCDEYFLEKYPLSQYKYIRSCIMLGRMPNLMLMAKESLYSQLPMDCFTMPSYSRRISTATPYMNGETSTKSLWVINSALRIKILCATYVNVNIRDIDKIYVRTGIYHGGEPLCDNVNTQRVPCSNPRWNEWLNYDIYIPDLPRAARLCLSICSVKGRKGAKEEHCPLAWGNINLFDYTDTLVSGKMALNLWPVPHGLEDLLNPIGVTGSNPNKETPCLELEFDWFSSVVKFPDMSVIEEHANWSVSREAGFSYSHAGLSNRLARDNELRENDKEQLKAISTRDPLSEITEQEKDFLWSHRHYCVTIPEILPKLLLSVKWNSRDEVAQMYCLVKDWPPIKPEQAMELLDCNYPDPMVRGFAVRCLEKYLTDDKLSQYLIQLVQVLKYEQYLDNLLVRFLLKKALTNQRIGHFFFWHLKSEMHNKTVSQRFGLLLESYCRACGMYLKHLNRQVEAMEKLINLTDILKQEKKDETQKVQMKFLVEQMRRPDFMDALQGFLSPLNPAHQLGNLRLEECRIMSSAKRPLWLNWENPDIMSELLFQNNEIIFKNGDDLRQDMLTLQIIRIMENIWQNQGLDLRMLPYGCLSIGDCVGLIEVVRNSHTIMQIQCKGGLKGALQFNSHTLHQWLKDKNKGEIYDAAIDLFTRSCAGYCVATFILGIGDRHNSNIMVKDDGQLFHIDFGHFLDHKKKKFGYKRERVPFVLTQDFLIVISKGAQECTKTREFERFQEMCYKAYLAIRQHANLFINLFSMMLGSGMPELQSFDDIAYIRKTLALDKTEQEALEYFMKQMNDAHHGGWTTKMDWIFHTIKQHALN
UniProt O14733, sequence (whole entry, looked up): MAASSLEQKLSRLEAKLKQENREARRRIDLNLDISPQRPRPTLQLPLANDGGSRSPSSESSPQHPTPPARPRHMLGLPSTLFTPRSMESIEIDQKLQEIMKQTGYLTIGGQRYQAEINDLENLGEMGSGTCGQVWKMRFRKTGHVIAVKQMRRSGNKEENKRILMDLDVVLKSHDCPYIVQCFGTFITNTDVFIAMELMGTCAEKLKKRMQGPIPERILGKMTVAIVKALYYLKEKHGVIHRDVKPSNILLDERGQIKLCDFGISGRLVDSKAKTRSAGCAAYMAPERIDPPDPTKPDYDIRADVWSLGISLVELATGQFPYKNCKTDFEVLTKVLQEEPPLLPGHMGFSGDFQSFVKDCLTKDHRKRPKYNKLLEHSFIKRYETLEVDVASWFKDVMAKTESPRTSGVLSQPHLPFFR
UniProt P53350, sequence (whole entry, looked up): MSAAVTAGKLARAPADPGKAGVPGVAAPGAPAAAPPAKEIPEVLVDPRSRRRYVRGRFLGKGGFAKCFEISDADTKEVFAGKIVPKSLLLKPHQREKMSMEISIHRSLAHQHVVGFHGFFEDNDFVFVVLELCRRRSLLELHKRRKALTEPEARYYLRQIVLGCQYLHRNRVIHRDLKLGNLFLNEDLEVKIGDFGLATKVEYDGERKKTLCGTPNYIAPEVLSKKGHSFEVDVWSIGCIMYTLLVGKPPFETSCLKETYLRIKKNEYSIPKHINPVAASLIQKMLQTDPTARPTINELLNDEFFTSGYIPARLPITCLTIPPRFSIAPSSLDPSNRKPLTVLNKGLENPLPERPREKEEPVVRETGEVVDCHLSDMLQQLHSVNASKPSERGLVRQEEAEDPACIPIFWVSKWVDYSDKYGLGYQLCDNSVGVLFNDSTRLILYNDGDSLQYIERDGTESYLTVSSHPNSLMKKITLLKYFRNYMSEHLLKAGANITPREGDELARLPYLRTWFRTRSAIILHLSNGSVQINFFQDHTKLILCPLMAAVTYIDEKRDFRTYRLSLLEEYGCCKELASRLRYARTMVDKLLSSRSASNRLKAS
UniProt P23458, sequence (whole entry, looked up): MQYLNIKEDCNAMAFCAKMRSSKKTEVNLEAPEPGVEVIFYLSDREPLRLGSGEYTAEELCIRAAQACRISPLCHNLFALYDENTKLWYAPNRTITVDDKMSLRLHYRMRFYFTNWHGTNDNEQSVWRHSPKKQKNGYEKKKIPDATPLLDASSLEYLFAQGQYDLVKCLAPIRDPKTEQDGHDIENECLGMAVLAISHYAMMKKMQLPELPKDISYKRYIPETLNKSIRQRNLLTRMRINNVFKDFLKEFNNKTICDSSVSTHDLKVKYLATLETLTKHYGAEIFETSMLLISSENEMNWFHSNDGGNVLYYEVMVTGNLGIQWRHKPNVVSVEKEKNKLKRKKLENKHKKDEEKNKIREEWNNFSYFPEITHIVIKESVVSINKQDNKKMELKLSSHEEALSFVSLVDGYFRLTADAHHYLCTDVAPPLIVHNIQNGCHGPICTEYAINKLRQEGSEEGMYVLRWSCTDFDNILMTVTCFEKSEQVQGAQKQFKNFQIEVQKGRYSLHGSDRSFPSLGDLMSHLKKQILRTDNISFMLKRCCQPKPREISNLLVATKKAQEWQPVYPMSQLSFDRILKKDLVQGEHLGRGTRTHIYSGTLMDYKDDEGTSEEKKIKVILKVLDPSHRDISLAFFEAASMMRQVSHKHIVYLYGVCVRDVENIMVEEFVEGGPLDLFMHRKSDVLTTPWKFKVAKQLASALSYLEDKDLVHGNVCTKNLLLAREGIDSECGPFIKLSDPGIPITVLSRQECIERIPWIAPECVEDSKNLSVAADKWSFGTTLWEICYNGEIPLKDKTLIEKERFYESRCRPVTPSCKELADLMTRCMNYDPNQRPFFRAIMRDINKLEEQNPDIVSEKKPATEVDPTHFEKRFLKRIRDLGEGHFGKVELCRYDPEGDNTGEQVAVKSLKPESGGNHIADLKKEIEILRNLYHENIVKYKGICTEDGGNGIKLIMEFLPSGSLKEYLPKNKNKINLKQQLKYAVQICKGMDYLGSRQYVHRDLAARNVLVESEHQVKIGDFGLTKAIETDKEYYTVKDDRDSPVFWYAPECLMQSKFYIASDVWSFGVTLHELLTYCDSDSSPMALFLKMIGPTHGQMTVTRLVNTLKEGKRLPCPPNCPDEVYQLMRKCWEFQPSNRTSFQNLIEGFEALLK

Block 1
SMILES: CCCCC(=O)Nc1ccc(-c2ccc3ncn(CCC)c(=O)c3c2)cn1
Read-out: binding
Technique: competition with immobilised ligand
Tested at: 0.5 µM
target	remaining binding
FLT3 (Homo sapiens, UniProt P36888, D835V)	100%
MAP2K7 (Homo sapiens, UniProt O14733)	100%
GRK3 (Homo sapiens, UniProt P35626)	100%
RET (Homo sapiens, UniProt P07949, V804M)	100%
PRKCD (Homo sapiens, UniProt Q05655)	100%

Single results of other studies
SMILES	target	test	setting	endpoint	result
Cc1cc([C@@H](C)Nc2ccccc2C(=O)O)c2nc(N3CCC(F)(F)CC3)c(C#N)c(=O)n2c1	PIK3CA (Homo sapiens, UniProt P42336)	binding, competition with immobilised ligand	10 µM	remaining binding	92%
C=CC(=O)N1CCC(COCC(=O)N2CCN(c3nc(-c4cnc(N)nc4C(F)F)nc(N4CCOC[C@@H]4C)n3)CC2)CC1	PLK1 (Homo sapiens, UniProt P53350)	binding, competition with immobilised ligand	1 µM	remaining binding	100%
CNc1ncc2c(/C=C/C(=O)N3CCC(OC)CC3)nn(Cc3cccc(C(F)(F)F)c3)c2n1	PIM1 (Homo sapiens, UniProt P11309)	enzyme activity, inhibitor, radiometric	1 µM	remaining activity	105%
COc1cc(-c2cncc3c2CN(C)Cc2cc(N4CCNCC4)ccc2-3)cc(OC)c1OC	RPS6KA3 (Homo sapiens, UniProt P51812)	enzyme activity, inhibitor	1 µM	remaining activity	101%
C1=C/COCc2cc(ccc2OCCN2CCCC2)Nc2nccc(n2)-c2cccc(c2)COC/1	Tyrosine-protein kinase JAK1, JH2 (JAK1, Homo sapiens, UniProt P23458)	cell-free assay	0.1 µM	remaining signal	30%

A few entries again (block 1):
target	remaining binding
PRKCD (Homo sapiens, UniProt Q05655)	100%
